Assay results collected from several papers.
Parts stem from different laboratories: compare values within a part only. Positions count from the first letter of the parent shown.

Sample 1
Target: CREB3L4, bZIP domain (human)
Technique: DHFR protein complementation
Sample: yeast
Notes: single substitutions, most at no-binding floor
Reference: wild-type JUN-FOS pair
Reading: higher = stronger binding
Starting sequence: JUN, bZIP domain (human); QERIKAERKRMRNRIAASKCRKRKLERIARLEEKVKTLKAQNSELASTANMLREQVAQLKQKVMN; partner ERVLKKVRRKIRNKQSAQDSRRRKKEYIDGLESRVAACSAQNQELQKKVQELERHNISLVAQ
Change	binding fitness [natural log]
A29C	-1.55
R53Q	-1.44
E44A	-1.27
E33N	-1.35
L38A	-1.55
R30A	-1.4
A57S	-1.23
L52H	-1.54
I28N	-1.55
E33G	-1.42
L31F	-1.48
E32F	-1.52
L59N	-1.51
V35G	-1.51
V35P	-1.48
V56R	-1.47

Sample 2
Target: CCNE1, cyclin fold, Cln2 fusion (human)
Technique: yeast growth competition, sequencing
Sample: yeast
Notes: weak parent motif
Reference: not given
Reading: higher = stronger binding
Starting sequence: PKN2 docking peptide (human); VSAVQKLDFSDTM
Change	normalised enrichment score
V1Q	1.07
M13K	0.184
T12M	0.38
Q5R	5.6
V4Y	0.0259
M13V	0.802
V1L	0.0939
S2C	0.372
V1Y	0.904
L7E	0.138
D11T	0.711
D11A	0.736
A3W	1.13

Sample 3
Target: Sal-like protein 4, full length isoform A (SALL4, Homo sapiens, UniProt Q9UJQ4, residues 1-1053)
Sequence of UniProt Q9UJQ4 (whole entry, looked up): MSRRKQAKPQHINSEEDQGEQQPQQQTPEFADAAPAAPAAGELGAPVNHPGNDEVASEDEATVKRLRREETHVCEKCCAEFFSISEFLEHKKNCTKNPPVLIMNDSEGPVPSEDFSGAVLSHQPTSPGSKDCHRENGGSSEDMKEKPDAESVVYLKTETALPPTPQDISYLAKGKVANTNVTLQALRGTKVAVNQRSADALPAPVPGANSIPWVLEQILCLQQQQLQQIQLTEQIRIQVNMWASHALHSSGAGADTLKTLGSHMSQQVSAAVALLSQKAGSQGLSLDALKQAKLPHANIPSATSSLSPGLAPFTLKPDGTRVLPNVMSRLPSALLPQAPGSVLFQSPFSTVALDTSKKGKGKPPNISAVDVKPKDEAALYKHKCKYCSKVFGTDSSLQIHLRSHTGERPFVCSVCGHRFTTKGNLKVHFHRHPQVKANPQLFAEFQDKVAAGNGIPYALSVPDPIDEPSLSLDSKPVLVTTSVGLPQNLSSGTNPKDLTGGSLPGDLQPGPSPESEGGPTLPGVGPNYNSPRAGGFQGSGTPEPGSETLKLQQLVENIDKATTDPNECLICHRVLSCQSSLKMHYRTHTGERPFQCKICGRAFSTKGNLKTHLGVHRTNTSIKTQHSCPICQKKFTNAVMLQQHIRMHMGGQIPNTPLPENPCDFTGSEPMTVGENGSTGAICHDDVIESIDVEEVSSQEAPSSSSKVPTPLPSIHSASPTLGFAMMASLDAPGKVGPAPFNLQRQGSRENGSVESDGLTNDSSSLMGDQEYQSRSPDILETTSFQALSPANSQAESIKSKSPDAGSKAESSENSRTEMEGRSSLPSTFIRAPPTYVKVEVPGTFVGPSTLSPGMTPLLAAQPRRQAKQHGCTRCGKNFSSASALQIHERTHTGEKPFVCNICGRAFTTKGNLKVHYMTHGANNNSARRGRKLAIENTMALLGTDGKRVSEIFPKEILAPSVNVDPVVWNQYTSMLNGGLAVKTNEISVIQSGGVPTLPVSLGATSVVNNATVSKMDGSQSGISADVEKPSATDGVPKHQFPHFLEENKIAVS
Technique: universal PBM
Molecule type: double-stranded DNA, one strand shown
Sample: in vitro
Tested at: 600 nM
Notes: 8-mer, flanks averaged, mean of replicates
Reading: higher = stronger binding
Strand	E-score
AGCTTCAT	0.0565
CACGGTGA	-0.0931
AGTTTATG	0.299
GGTATCAC	-0.129
AGCCAAGC	-0.331
ATGCTGTC	-0.00212
CAAGCCAC	-0.28
AGCTTGCA	-0.0177
GTCCACGA	-0.208
AATTCACT	0.201
AAAATTTT	0.342
GGACACGA	-0.128
CGTGGTAG	-0.249
CTACGTTC	0.0013
ATATCGCC	0.0984
ATCTATAA	0.401
AAAGGGTC	-0.0341
CGCGCGGC	-0.312
CGGGTGAC	-0.359
CCTACCCA	-0.0363
ATAGTACC	0.0515
ATACCCAG	-0.0479
AGGTGATC	0.0193
AAAGACTG	0.0421
CCACGGCG	-0.291

Sample 4
Target: UBE2L3 UBC core domain (UniProt P68036)
Sequence of UniProt P68036 (whole entry, looked up): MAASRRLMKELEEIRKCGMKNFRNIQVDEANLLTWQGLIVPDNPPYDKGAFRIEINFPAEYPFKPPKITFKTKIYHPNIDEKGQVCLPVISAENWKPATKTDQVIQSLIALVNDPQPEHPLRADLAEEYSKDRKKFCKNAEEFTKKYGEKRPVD
Technique: yeast two-hybrid
Sample: yeast
Notes: mostly zero background
Reference: not given
Reading: higher = stronger interaction
B1: RNF183 RING domain (UniProt Q96D59); chain EQQGRELEAECPVCWNPFNNTFHTPKMLDCCHSFCVECLAHLSLVTPARRRLLCPLCRQPTVLASGQP
B2: TRIM22 RING domain (UniProt Q8IYM9); chain VKVDIEKEVTCPICLELLTEPLSLDCGHSFCQACITAKIKESVIISRGESSCPVCQTRFQPGNLRP
B3: ANAPC11 RING domain (UniProt Q9NYG5); chain GICRMAFNGCCPDCKVPGDDCPLVWGQCSHCFHMHCILKWLHAQQVQQHCPMCRQEWKFKE
B4: MKRN2 RING domain (UniProt Q9H000); chain FAFQASQDKVCSICMEVILEKASASERRFGILSNCNHTYCLSCIRQWRCAKQFENPIIKSCPECRVISEFVIPSV
B5: TRIM31 RING domain (UniProt Q9BZY9); chain FVNKLQEEVICPICLDILQKPVTIDCGHNFCLKCITQIGETSCGFFKCPLCKTSVRKNAIRF
B6: TRIM26 RING domain (UniProt Q12899); chain PLRSLEEEVTCSICLDYLRDPVTIDCGHVFCRSCTTDVRPISGSRPVCPLCKKPFKKENIRP
B7: TRIM37 RING domain (UniProt O94972); chain SVESIAEVFRCFICMEKLRDARLCPHCSKLCCFSCIRRWLTEQRAQCPHCRAPLQLRELVN
Sequence	lacZ reporter activity
B1 (RNF183 RING domain)	0
B2 (TRIM22 RING domain)	0
B3 (ANAPC11 RING domain)	0
B4 (MKRN2 RING domain)	0
B5 (TRIM31 RING domain)	0
B6 (TRIM26 RING domain)	0
B7 (TRIM37 RING domain)	0
LDAASGHPLVCPLCHGQYERPCLLDCFHDFCTGCLRGRATDGRLSCPLCQHQTLVKGPSG (Rnf207 RING domain (UniProt Q3V3A7))	0
RYRQMEERITCPICIDSHIRLVFQCGHGACAPCGSALSACPICRQPIRDRIQIF (MIB2 RING domain (UniProt Q96AX9))	0

Sample 5
Target: ABI1, truncated, D143A, DHFR fusion (Arabidopsis thaliana)
Technique: DHFR PCA, deep sequencing
Sample: yeast
Notes: methotrexate growth selection, single substitutions
With: (+)-ABA 17 µM
Reference: wild-type fitted maximum
Reading: higher = stronger binding
Starting sequence: PYL1, truncated, DHFR fusion (Arabidopsis thaliana); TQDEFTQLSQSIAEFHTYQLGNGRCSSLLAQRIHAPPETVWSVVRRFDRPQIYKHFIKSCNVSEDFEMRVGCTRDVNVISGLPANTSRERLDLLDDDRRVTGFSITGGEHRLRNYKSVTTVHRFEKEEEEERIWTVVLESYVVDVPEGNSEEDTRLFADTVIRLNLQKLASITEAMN
Change	relative binding score
N22D	85.7%
L28T	58.1%
V142Y	34.9%
Q167T	82.1%
L94K	-1.84%
R49L	55.8%
L20P	88.1%
A175V	77.2%
S104G	0.199%
T6A	87.8%
T101M	95.4%

Sample 6
Target: Prothrombin, mature alpha-thrombin (F2, Homo sapiens, UniProt P00734)
Technique: aptamer microarray, sandwich
Molecule type: DNA with 2'F-ANA
Sample: in vitro
Tested at: 200 nM
Notes: whole 15-mer aptamer, many near background
With: Cy3 exosite-II aptamer, 400 nM
Reading: higher = stronger binding
Strand: GGTTGGTGTGGTTGG
Modification	mean fluorescence intensity
2'F-ANA at 8 10 12 14 15	120 a.u.
2'F-ANA at 2 4 5 6 7 9 11 12 13	80.6 a.u.
2'F-ANA at 2 3 8 9 13 14	395 a.u.
2'F-ANA at 2 7 8 9 10 11 12 15	155 a.u.
2'F-ANA at 2 6 8 9 10 12 14 15	80.3 a.u.
2'F-ANA at 2 3 5 7 8 10 11 13	55.3 a.u.
2'F-ANA at 2 6 7 8 11 12	508 a.u.
2'F-ANA at 1 2 3 4 9 11 13 15	111 a.u.
2'F-ANA at 3 4 7 9 10 11 13 15	248 a.u.
2'F-ANA at 1 3 5 6 7 8 9 11 15	125 a.u.
2'F-ANA at 1 4 7 9 10 11 12 13 14 15	52.3 a.u.
2'F-ANA at 1 2 3 6 7 10 11 13	70.6 a.u.
2'F-ANA at 1 3 4 8 9 10 11 13 14 15	52.7 a.u.
2'F-ANA at 1 2 3 4 9 10 11 14	77.4 a.u.

Sample 7
Target: Ras GTPase-activating protein-binding protein 1, C-terminal RGG region (G3BP1, Homo sapiens, UniProt Q13283)
Sequence of UniProt Q13283 (whole entry, looked up): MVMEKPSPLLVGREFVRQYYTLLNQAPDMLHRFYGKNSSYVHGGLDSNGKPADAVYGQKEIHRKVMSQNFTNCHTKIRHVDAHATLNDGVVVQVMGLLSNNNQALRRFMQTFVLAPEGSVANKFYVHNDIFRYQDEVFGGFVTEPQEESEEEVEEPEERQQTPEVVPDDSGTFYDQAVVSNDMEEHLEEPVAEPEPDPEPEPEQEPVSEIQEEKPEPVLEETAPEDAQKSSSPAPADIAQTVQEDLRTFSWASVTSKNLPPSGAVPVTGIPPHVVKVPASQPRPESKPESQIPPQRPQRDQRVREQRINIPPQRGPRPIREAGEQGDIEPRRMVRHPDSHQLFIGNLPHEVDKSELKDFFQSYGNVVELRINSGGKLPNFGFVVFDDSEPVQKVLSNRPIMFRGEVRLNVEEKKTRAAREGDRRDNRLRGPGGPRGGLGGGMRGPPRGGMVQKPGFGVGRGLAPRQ
Technique: RNA Bind-n-Seq
Molecule type: RNA
Sample: in vitro
Tested at: 1 µM
Notes: whole 134-nt RNA, ends assumed
With: 150 mM KCl
Reference: input library
Reading: higher = stronger binding
Strand	log2 enrichment
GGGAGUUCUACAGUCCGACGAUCUAACUUUAGAGGAGGAUCUGAUGGAUAUGGCAGUGGACGUGGAUUUGGGGAUGGCUAUAGUGGGUAUGGAGGAGGACCUGGAGGUGGCAAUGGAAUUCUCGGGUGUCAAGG	-1.24
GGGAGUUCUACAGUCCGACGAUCGCAGGAAGUAAAAACAAAAAGAAAUGCUUCGGAUAGUGGCAGGGGUGGGGGUUGCUAAGGAAAGGGUGGGAUGGGAGUGGGUAAAGAGUUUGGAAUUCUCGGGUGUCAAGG	1.76
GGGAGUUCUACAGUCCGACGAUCUGGCCCUGGUGGCAUGCGGGGAGGAAGAGGUGGCCUCAUGGAUCGUGGUGGUCCCGGUGGAAUGUUCACAGGUGGCCGUGGUGGAGACAGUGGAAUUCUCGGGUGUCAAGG	3.38
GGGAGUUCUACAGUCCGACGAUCUCAAGUCCUGUGCUACACAUCGUAUGUACCGAAUCGGUUUUUGGAAAGGAAAGGAAAGUAUUAUGUUACGCCGUUCGGAUCUGCACUUCCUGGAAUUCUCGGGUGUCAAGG	-1.35
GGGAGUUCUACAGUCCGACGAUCCAAGUCCUGUGCUACACAUCGUAUGUACCGAAUCGGGGAAGGGGAAGGGAAGGGGAAAGUAUUAUGUUACGCCGUUCGGAUCUGCACUUCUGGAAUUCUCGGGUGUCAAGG	2.79
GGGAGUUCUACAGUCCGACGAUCAGUCCUGUGCUACACAUCGUAUGUACCGAAUCGGUUUUUGGGUUUUUGGGUUUUUGGAAAGUAUUAUGUUACGCCGUUCGGAUCUGCACUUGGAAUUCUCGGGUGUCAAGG	-1.24
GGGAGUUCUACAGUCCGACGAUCUAACUUUAGAGGAGGAUCUGAUGGAUAUGGCAGUGGACGUGGAUUUGGGGAUGGCUAUAAUGGGUAUUGAGGAGGACCUGGAGGUGGCAAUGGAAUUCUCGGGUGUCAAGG	-0.896
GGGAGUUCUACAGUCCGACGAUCCCUGUGCUACACAUCGUAUGUACCGAAUCGGGUUUUUUUGGGUUUUUUUGGGUUUUUUUGGAAAGUAUUAUGUUACGCCGUUCGGAUCUGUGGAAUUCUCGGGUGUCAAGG	-1.01
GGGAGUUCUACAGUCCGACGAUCGUCCUGUGCUACACAUCGUAUGUACCGAAUCGGGGUUUUUGGGUUUUUGGGGUUUUUGGAAAGUAUUAUGUUACGCCGUUCGGAUCUGCAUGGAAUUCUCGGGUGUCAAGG	-0.764
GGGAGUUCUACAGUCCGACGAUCUCCUGUGCUACACAUCGUAUGUACCGAAUCGGGAAAAAAGGAAAAAAGGGAAAAAAGGGGAAAGUAUUAUGUUACGCCGUUCGGAUCUGCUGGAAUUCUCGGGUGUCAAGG	-1.56
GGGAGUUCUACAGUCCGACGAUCUAACUUUAGAGGAGGAUCUGAUGGAUAUGGCAGUGGACGGGGAUUUGGGGAUGGCUAUAAUGGGUAUGGAGGAGGACCUGGAGGUGGCAAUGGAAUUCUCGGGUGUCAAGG	-0.69
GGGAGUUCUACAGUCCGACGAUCGUCCUGUGCUACACAUCGUAUGUACCGAAUCGGGGAAAAAGGAAAAAGGGAAAAAGGGAAAGUAUUAUGUUACGCCGUUCGGAUCUGCACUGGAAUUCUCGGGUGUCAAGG	-1.43
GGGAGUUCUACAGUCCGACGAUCAAGUCCUGUGCUACACAUCGUAUGUACCGAAUCGGUUUUUGGUUUUUUUGGUUUGGAAAGUAUUAUGUUACGCCGUUCGGAUCUGCACUUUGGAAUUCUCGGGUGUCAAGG	-1.67
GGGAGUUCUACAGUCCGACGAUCAAGUCCUGUGCUACACAUCGUAUGUACCGAAUCGGGUUUGGGAGGGAAAAAAAGGGAAAGUAUUAUGUUACGCCGUUCGGAUCUGCACUUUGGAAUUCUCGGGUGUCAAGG	0.0415

Repeated from above (sample 3):
Strand	E-score
GGACACGA	-0.128
CGTGGTAG	-0.249
CTACGTTC	0.0013
ATATCGCC	0.0984
ATCTATAA	0.401
AAAGGGTC	-0.0341
CGCGCGGC	-0.312
CGGGTGAC	-0.359
CCTACCCA	-0.0363
ATAGTACC	0.0515
ATACCCAG	-0.0479
AGGTGATC	0.0193
AAAGACTG	0.0421
CCACGGCG	-0.291
